Assay results pooled from the literature.
Parts stem from different laboratories: compare values within a part only. Substitutions count along the parent as printed.
UniProt Q86UX6, sequence (whole entry, looked up): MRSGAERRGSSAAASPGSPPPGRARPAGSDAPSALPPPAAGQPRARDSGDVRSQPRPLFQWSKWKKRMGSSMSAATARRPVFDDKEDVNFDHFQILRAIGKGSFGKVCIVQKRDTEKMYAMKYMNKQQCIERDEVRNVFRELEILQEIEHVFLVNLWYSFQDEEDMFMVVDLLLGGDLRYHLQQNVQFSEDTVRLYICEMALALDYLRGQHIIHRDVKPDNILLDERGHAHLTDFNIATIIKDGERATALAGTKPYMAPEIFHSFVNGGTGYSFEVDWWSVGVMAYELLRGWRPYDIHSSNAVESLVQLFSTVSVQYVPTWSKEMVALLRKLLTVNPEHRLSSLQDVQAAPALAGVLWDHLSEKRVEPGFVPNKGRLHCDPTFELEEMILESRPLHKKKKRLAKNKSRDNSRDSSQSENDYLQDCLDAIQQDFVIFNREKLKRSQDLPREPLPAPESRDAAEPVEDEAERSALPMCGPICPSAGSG
UniProt P29320, sequence (whole entry, looked up): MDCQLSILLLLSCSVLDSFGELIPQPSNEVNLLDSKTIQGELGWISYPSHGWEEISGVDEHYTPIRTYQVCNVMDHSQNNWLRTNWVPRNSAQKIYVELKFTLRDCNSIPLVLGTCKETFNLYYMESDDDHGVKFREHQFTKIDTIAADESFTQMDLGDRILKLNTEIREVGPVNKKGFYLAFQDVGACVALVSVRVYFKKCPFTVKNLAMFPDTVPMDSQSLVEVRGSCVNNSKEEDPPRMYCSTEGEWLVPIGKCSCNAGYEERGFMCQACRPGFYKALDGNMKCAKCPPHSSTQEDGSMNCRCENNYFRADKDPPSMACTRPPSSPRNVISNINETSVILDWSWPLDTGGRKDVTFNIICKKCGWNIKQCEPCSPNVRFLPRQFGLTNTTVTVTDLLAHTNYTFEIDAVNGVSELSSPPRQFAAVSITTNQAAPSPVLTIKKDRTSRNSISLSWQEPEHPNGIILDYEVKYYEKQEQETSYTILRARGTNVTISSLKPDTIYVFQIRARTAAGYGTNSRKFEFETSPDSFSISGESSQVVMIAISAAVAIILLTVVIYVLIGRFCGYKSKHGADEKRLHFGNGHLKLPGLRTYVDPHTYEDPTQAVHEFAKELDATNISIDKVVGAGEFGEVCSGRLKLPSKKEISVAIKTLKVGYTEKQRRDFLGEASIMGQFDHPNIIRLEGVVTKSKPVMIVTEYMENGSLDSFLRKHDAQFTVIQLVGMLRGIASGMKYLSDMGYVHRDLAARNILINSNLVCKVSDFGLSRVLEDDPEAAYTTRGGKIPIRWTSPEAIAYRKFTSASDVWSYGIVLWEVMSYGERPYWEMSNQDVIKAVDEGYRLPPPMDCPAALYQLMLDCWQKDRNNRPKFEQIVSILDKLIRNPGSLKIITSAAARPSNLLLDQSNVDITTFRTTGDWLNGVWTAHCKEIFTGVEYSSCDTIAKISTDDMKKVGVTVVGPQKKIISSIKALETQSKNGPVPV
UniProt Q16539, sequence (whole entry, looked up): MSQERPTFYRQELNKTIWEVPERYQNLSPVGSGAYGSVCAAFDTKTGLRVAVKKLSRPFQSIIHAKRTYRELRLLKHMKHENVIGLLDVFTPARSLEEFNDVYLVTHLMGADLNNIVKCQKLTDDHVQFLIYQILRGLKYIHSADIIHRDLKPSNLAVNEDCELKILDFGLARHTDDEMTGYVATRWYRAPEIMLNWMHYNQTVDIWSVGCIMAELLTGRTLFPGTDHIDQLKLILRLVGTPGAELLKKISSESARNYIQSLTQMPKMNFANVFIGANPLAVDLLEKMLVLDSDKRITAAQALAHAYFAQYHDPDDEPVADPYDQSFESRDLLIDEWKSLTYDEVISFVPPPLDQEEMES
UniProt Q8N4C8, sequence (whole entry, looked up): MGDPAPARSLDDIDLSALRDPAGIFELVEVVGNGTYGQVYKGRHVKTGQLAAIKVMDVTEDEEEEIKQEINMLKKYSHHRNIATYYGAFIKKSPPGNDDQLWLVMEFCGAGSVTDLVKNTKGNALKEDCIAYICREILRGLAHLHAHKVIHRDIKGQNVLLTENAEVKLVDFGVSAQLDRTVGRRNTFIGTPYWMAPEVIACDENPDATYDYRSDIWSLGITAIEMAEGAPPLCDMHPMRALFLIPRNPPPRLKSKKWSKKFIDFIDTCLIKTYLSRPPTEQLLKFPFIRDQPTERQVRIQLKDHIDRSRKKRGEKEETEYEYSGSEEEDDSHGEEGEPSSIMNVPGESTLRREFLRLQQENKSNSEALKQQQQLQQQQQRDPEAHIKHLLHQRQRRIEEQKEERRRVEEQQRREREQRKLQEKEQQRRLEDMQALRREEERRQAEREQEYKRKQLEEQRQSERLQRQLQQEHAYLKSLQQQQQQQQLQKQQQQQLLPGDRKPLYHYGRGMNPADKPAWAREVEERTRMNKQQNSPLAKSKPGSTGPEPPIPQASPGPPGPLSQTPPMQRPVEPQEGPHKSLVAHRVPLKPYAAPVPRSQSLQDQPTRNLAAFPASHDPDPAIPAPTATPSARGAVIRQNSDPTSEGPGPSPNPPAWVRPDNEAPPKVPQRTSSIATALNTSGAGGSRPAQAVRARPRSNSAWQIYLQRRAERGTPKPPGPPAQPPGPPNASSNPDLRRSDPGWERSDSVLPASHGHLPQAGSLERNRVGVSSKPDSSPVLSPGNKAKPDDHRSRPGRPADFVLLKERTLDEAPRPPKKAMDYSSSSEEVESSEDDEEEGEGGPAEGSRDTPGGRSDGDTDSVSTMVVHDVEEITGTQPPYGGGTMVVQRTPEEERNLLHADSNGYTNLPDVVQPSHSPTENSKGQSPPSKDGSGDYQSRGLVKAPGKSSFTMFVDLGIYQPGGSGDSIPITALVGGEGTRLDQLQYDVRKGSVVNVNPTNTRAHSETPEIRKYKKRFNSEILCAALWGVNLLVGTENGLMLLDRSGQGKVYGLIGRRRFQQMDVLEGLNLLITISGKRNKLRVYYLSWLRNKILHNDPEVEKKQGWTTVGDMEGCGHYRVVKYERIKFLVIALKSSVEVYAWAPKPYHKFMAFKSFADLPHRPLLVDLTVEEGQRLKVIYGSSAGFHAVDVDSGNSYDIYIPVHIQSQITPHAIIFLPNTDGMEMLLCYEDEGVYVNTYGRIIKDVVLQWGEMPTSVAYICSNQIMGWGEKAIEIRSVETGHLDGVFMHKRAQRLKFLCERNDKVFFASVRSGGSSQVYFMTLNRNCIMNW
UniProt Q00536, sequence (whole entry, looked up): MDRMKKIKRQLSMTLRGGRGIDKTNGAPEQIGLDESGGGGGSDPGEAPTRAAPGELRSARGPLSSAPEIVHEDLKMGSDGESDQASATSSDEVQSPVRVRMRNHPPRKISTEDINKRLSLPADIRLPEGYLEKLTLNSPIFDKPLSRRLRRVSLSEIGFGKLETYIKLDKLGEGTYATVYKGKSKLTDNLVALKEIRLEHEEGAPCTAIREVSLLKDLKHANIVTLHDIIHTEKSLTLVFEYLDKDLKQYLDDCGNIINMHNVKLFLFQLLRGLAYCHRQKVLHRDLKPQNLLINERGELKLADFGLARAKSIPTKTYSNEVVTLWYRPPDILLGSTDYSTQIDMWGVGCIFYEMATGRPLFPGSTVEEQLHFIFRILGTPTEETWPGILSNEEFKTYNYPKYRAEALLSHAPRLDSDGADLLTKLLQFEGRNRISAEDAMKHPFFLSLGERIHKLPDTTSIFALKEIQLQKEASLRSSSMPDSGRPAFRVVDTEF
UniProt Q9Y4K4, sequence (whole entry, looked up): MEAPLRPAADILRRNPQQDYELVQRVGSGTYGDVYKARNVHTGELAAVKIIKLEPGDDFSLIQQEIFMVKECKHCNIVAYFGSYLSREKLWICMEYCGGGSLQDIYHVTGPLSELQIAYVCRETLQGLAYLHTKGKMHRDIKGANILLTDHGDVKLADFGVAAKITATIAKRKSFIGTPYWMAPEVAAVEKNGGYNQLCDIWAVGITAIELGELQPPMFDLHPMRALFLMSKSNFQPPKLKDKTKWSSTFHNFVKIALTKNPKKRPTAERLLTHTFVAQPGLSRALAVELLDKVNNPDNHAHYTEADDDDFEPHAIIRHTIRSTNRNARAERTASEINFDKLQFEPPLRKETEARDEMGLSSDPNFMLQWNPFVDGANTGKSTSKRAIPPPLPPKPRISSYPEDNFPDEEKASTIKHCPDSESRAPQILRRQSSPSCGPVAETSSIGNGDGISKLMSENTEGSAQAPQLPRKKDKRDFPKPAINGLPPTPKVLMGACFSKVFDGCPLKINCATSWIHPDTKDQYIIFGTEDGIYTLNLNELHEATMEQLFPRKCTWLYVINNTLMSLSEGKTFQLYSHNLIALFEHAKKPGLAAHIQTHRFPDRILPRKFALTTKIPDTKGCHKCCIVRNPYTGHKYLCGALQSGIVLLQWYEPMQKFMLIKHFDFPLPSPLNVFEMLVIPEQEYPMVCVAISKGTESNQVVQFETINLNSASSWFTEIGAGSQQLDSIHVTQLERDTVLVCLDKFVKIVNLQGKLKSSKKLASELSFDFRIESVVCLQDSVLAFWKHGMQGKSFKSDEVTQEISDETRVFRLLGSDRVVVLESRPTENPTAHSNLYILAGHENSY
UniProt P06493, sequence (whole entry, looked up): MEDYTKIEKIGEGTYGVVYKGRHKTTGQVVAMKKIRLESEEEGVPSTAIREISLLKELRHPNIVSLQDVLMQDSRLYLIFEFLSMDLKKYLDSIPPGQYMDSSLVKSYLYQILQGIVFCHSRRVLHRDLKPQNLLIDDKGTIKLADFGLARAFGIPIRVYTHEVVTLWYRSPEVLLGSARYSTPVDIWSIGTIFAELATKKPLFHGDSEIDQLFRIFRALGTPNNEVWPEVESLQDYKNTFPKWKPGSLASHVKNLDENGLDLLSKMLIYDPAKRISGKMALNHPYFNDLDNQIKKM

Study 1 — target: CCNB3, cyclin fold, Cln2 fusion (human); technique: yeast growth competition, sequencing; matrix: yeast; setting: weak parent motif; reference: not given; reading: higher = stronger binding
Parent: ORC1 docking peptide (human); PRARKRLELGNLG; partner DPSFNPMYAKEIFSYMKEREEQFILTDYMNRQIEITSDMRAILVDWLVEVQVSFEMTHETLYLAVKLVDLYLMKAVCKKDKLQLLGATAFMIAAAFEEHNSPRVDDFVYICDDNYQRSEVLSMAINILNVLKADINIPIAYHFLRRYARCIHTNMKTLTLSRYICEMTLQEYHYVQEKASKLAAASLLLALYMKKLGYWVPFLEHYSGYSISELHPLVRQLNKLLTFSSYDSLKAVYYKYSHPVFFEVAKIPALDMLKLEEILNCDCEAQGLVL
| Substitution | normalised enrichment score |
| --- | --- |
| GRARKRLELGNLG [P1G] | -0.641 |
| PRARKRLELGNIG [L12I] | 0.216 |
| PRARKRLELGWLG [N11W] | 0.2 |
| PRARKRLELLNLG [G10L] | 0.615 |
| PNARKRLELGNLG [R2N] | 0.224 |
| PRARKRLGLGNLG [E8G] | 0.09 |
| PRARKRLELYNLG [G10Y] | 1.05 |
| NRARKRLELGNLG [P1N] | 0.383 |

Study 2 — read-out: cell-free assay; technique: competition with immobilised ligand; tested at: 1 µM
SMILES: CCC(=O)N[C@@H]1CC[C@H](C(=O)N(C)c2ccc(-c3nc4ccccc4o3)cc2)C1
| target | remaining binding |
| --- | --- |
| SBK3 (Homo sapiens, UniProt P0C264) | 88% |
| STK32C (Homo sapiens, UniProt Q86UX6) | 73% |
| EPHA3 (Homo sapiens, UniProt P29320) | 100% |
| RIPK2 (Homo sapiens, UniProt O43353) | 85% |
| MAP3K1 (Homo sapiens, UniProt Q13233) | 74% |
| ERBB2 (Homo sapiens, UniProt P04626) | 100% |
| MAP4K5 (Homo sapiens, UniProt Q9Y4K4) | 91% |
| CDK16 (Homo sapiens, UniProt Q00536) | 100% |

Study 3 — read-out: enzyme activity; action: inhibitor; tested at: 0.5 µM; reference: control
Structure (SMILES): O=C1NC(=O)C(c2c[nH]c3ccccc23)=C1c1c[nH]c2ccccc12
| target | remaining activity |
| --- | --- |
| RPS6KA4 (Homo sapiens, UniProt O75676) | 87.4% |
| Cyclin-dependent kinase 1, with cyclin A (CDK1, Homo sapiens, UniProt P06493) | 96.3% |
| MAPK14 (Homo sapiens, UniProt Q16539) | 109% |
| MINK1 (Homo sapiens, UniProt Q8N4C8) | 83.4% |
| ROCK1 (Homo sapiens, UniProt Q13464) | 97.4% |

Study 4 — technique: RNA Bind-n-Seq; molecule type: RNA; matrix: in vitro; tested at: 20 nM; setting: 6-mer, flanks averaged, single round; together with: 150 mM LiCl; reference: input library; reading: higher = stronger binding
Target: TAR DNA-binding protein 43, full length, His tag (TARDBP, Homo sapiens, UniProt Q13148, residues 1-414)
| Sequence | 6-mer enrichment (R) |
| --- | --- |
| UAUUCC | 0.931 |
| ACAAAG | 0.844 |
| CCUAUU | 1.02 |
| AAGGGC | 0.957 |
| GCAUUA | 0.897 |
| UUAUAC | 0.939 |
| UGAGCU | 0.936 |
| UCUGCU | 0.912 |

A few entries again (study 4):
| Sequence | 6-mer enrichment (R) |
| --- | --- |
| UAUUCC | 0.931 |
| ACAAAG | 0.844 |
